Experimental data from different studies.
Lines come from different studies, so protocols differ. “And” joins repeats or separate records; there may be more than shown. ± gives the spread as reported.

With `CC(C)C[C@@H](NC(=O)[C@@H](CC(C)C)NC(=O)[C@@H](CC(=O)O)NC(=O)[C@@H](CC(C)C)NC(=O)[C@@H](CC(C)C)NC(=O)[C@@H](CC(C)C)NC(=O)[C@H](NC(=O)[C@@H](CC(=O)O)NC(=O)[C@H](NC(=O)[C@H]1CCCN1C(=O)[C@@H](Cc1ccccc1)NC(=O)[C@@H](CC(C)C)NC(=O)[C@@H](CC(C)C)NC(=O)[C@@H](CC(=O)O)NC(=O)[C@@H](CC(C)C)NC(=O)[C@@H](Cc1ccc(O)cc1)NC(=O)[C@@H](C)NC(=O)[C@@H](CCCNC(=N)N)NC(=O)[C@@H](Cc1c[nH]c2ccccc12)NC(=O)[C@H]1CCCN1C(=O)[C@@H](CC(N)=O)NC(=O)[C@@H](CCC(N)=O)NC(=O)[C@@H](CC(=O)O)NC(=O)[C@@H](CC(=O)O)NC(=O)[C@@H](CSC1CC(=O)N(CCNC(=O)CN2CCN(CC(=O)O)CCN(CC(=O)O)CC2)C1=O)NC(=O)[C@@H](C)N)[C@H](C)O)[C@H](C)O)C(=O)N[C@H](Cc1c[nH]c2ccccc12)C(=O)O` (some centres unmarked) [fluorine-18 labelled] the tumour uptake was 3.97 %ID/g (male nude mouse, U-87 MG xenograft, tumour; intravenous, 6 h).
For `human nucleophosmin`, the alpha-helix content was 16% (far-UV CD, CDSSTR; Tris buffer, NaCl; pH 7.5, room temperature).
`O=C(CCCc1cn(C[C@H]2O[C@@H]3O[C@H]4[C@H](O)[C@@H](O)[C@@H](O[C@H]5[C@H](O)[C@@H](O)[C@@H](O[C@H]6[C@H](O)[C@@H](O)[C@@H](O[C@H]7[C@H](O)[C@@H](O)[C@@H](O[C@H]8[C@H](O)[C@@H](O)[C@@H](O[C@H]2[C@H](O)[C@H]3O)O[C@@H]8Cn2cc(CCCC(=O)N[C@H]3CCOC3=O)nn2)O[C@@H]7Cn2cc(CCCC(=O)N[C@H]3CCOC3=O)nn2)O[C@@H]6Cn2cc(CCCC(=O)N[C@H]3CCOC3=O)nn2)O[C@@H]5Cn2cc(CCCC(=O)N[C@H]3CCOC3=O)nn2)O[C@@H]4Cn2cc(CCCC(=O)N[C@H]3CCOC3=O)nn2)nn1)N[C@H]1CCOC1=O` — result for “water solubility fold decrease”: roughly 50 (1H NMR; relative to: native alpha-cyclodextrin).
The tissue uptake of `CCCC[C@H](NC(=O)CCCCCCCNC(=O)CN1CCN(CC(=O)O)CCN(CC(=O)O)CC1)C(=O)N[C@H]1CC(=O)NCCCC[C@@H](C(N)=O)NC(=O)[C@H](Cc2c[nH]c3ccccc23)NC(=O)[C@H](CCCNC(=N)N)NC(=O)[C@@H](Cc2ccccc2)NC(=O)[C@H](Cc2c[nH]cn2)NC1=O` [technetium-99m labelled] is reported as 0.91 ± 0.57 %ID/g (C57 mouse, tumor; intravenous, 0.037 MBq, 24 h).
With `C=C1CC[C@H](OCCCNC(=O)CCOCCOCCOCCOCCOCCOCCOCCOCCOCCOCCOCCOCCOCCOCCOCCOCCOCCOCCOCCOCCOCCOCCOCCOCCOCCOCCOCCOCCOCCOCCOCCOCCOCCOCCOCCOCCNC(=O)CCN2C(=O)CC(SC[C@H](NC(=O)[C@H](Cc3ccccc3)NC(=O)[C@H](CC(N)=O)NC(=O)[C@H](Cc3c[nH]cn3)NC(=O)[C@@H](NC(=O)[C@H](CC(=O)O)NC(=O)[C@H](CCC(N)=O)NC(=O)[C@H](CC(C)C)NC(=O)[C@H](CCCCN)NC(=O)[C@H](CCCCN)NC(=O)[C@H](CCCNC(=N)N)NC(=O)[C@H](CC(C)C)NC(=O)[C@H](Cc3c[nH]c4ccccc34)NC(=O)[C@H](CCC(=O)O)NC(=O)[C@@H](NC(=O)[C@H](CCCNC(=N)N)NC(=O)[C@H](CCC(=O)O)NC(=O)[C@H](CCSC)NC(=O)[C@H](CO)NC(=O)[C@H](CC(N)=O)NC(=O)[C@H](CC(C)C)NC(=O)[C@H](Cc3c[nH]cn3)NC(=O)[C@H](CCCCN)NC(=O)CNC(=O)[C@H](CC(C)C)NC(=O)[C@H](CC(N)=O)NC(=O)[C@H](Cc3c[nH]cn3)NC(=O)[C@H](CCSC)NC(=O)[C@H](CC(C)C)NC(=O)[C@H](CCC(N)=O)NC(=O)[C@@H](NC(=O)[C@H](CCC(=O)O)NC(=O)[C@H](CO)NC(=O)[C@@H](NC(=O)[C@@H](N)CO)C(C)C)[C@@H](C)CC)C(C)C)C(C)C)C(=O)O)C2=O)C/C1=C/C=C1\CCC[C@]2(C)[C@@H]([C@H](C)CCCC(C)(C)O)CC[C@@H]12` (some centres unmarked) the clearance was 0.134 mL/min/kg (cynomolgus monkey male; sc, 0.02 mg/kg single).
For `CC(C)C[C@H](NC(=O)[C@@H](CCCCNC(=O)[C@@H](Cc1ccccc1)NC(=O)CCCCCNC(=O)CN1CCN(CC(=O)O)CCN(CC(=O)O)CCN(CC(=O)O)CC1)NC(=O)[C@H](Cc1ccc(O)cc1)NC(=O)[C@H](CO)NC(=O)[C@H](Cc1c[nH]c2ccccc12)NC(=O)[C@H](Cc1c[nH]cn1)NC(=O)[C@@H]1CCC(=O)N1)C(=O)N[C@@H](CCCNC(=N)N)C(=O)N1CCC[C@H]1C(=O)NCC(N)=O` [indium-111 labelled], the tissue uptake was 0.3 ± 0.28 %ID/g (female athymic nude mice, stomach; intravenous, 0.037 MBq, 4 h).
The activity concentration of `CC(C)C[C@H](NC(=O)[C@H](Cc1ccc(O)cc1)NC(=O)[C@@H](CCCNC(=N)N)NC(=O)[C@@H](CO)NC(=O)[C@H](Cc1ccccc1)NC(=O)[C@H](CC1CCCCC1)NC(=O)[C@H](CC(=O)O)NC(=O)CN1CCN(CC(=O)O)CCN(CC(=O)O)CCN(CC(=O)O)CC1)C(=O)N[C@@H](Cc1c[nH]c2ccccc12)C(=O)N[C@@H](CO)C(=O)O` [copper-64 labelled] is reported as 487 Bq/mL and 382 Bq/mL and 695 Bq/mL and 403 Bq/mL and 287 Bq/mL and 351 Bq/mL (human, thyroid; concentration not given, 24 h).
Under “initial activity A0”, `N=C(N)NCCC[C@@H]1NC(=O)[C@H](CCCCNC(=S)Nc2ccc(CC3CN(CC(=O)O)CCN(CC(=O)O)CCN(CC(=O)O)CCN3CC(=O)O)cc2)NC(=O)[C@@H](Cc2ccc(O)cc2)NC(=O)[C@H](CC(=O)O)NC(=O)CNC1=O` (some centres unmarked) [actinium-225 labelled] is recorded as 0.0025 µCi (mice with U-87 MG tumour, kidney; dose not given).

Repeated from above:
For `human nucleophosmin`, the alpha-helix content was 16% (far-UV CD, CDSSTR; Tris buffer, NaCl; pH 7.5, room temperature).
